Published values from different studies.
Each numbered part is a random draw from the data of one study; scales do not carry over between parts. Changes are numbered by the printed parent chain.

Block 1
Target: RNA binding protein fox-1 homolog 2, RRM domain, GST-SBP tag (RBFOX2, Homo sapiens, UniProt O43251-10, residues 100-194)
Technique: RNA Bind-n-Seq
Form: RNA
Matrix: in vitro
Concentration: 365 nM
Notes: natural RNA segment, single round, ends assumed
Relative to: no-protein control
Direction: higher = stronger binding
Residues (chain): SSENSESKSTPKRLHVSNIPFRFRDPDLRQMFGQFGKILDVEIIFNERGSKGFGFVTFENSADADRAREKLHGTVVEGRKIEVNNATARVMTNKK
| Sequence | RBNS enrichment (R) |
| --- | --- |
| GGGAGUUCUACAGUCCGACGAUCACCCCAUAGCUGGAGGCCUGUGGUGCCAGAAGCCCAGAUUAGGGUGGCUGUCCAUCCCUGGAUAGCUAUUUGCACGAAUCAUGGACAUAAAUCCAAGUUGAAGAAGAUCAUGGAAUUCUCGGGUGCCAA | 2.59 |
| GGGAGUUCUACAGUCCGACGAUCAAGCAGUCUUUCAAAAUUCCUACUUGUAUAUUCAUCCAUUGUUGACAAGGACAAAAUCAGUUGUAUUUACAAAACUCUUAACUCGGUAUUUUUUUUUUAAACUGAAUCCUUGGAAUUCUCGGGUGCCAA | 0.498 |
| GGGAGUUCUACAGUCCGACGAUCUACUGAAGUCUCUGCUUUCUGUCAGAAUCAACCACCGACCUUGUGCUGCAUUGGAGAUCACAUCCUUUCCCUGUGUUGCCCCCAUUUCUCUGCUGCUUCUCUGGCUUGUUUGGAAUUCUCGGGUGCCAA | 0.404 |
| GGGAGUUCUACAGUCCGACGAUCUUUUUCACUAAGAAUUUAGUUAAAUUGUCUUUACUAUACAGCAAGAAAUCUCUUUAGAAGAAACUUUAUGAGUUUAUAAAUGAGAAAACCUUUCAGCAGUUAUGUAGCCUUGGAAUUCUCGGGUGCCAA | 0.428 |
| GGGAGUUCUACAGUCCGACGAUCUGAUCUAUUUCAGUAAAUCUCUUGGGACCACCAGUAUUUGGAUCUGACCUUGGUAGGACUAAAGUAUUGGGCAGAGCAGCAGCAGUCCCAGGUUUUGUUUGACCUGUGUAUGGAAUUCUCGGGUGCCAA | 0.326 |
| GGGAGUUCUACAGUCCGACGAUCCAGGUCAUCAAGCCGAGAGGGCGUCAAAGAGGAAGCCUGGGCUGGGAUCCUUAGGCUCAGCUGUCUGUCUAAUCCCAGAGCUAAGCCCUUUCUGCUUCGGGCAGCCUGGAUGGAAUUCUCGGGUGCCAA | 0.335 |
| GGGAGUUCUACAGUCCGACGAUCCUGUCUCUCUUUGAGAACAAUGAAGGCCACUCUCCACUGGGGCCAUCCCUCCCCACUCUGCCUCCUACCCCAUCUGUCCCACAUCCUAUUCCUCCCAGGAGCCCAUGCUCUGGAAUUCUCGGGUGCCAA | 0.636 |
| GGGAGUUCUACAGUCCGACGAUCACACCUGGAGCCAAAGCAGGAGUUGGAGGGACAAUGCCACUAUGAAUCUAAUGUUUAAAAGGUUAGGGAACAUGGAUAUUCGUACUCACAUCUGCGCCCCUCCCCCUUGCUGGAAUUCUCGGGUGCCAA | 0.772 |
| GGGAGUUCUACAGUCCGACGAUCAAUUUGUCUCCUAUUCUUAAGUACUUCUGCAAGGUAUUAGAUGCUGCUCCUUACCAAAAAUCAGUCUUCUAGCAAAUAAAAAUAACUUAGAGCAUUAUUUAUUUAAAGAAUGGAAUUCUCGGGUGCCAA | 0.539 |
| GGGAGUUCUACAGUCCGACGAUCGGCACAUAUGUUGUAUUGCAAAGCAUAUUUGGCAAGCAGUUCAUCACCAAGGCAGUAGCUAUGAUUCUAGAAGCUAAGAGGUGUCUAUAGAGCUAGACGGGCUUCUGCAUUGGAAUUCUCGGGUGCCAA | 0.977 |
| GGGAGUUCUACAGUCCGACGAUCAGGGGAUCCCUUCCCCCAAGCCCGUCAGUAGCGUCAGCUUGGGGCCUCUCGGGACUCCUGUUGUAGGUGGUCCCAGUCACAAGAAACCCUCUCCAGGCAAGAGGCCAUUCUGGAAUUCUCGGGUGCCAA | 0.264 |
| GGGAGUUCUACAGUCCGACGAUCAUAUGCAUAUAUGAGUGUUAUAUUGCAAAAUCUUUGUUUUACUUACAUGGUUAAAGCAGCAAGAAUUCUUUUGUUGAUAUGUAAUUAUACACAUAAAAUAUAUAUAUGUAUGGAAUUCUCGGGUGCCAA | 0.374 |

Block 2
Target: Histone acetyltransferase KAT6A, winged helix 2, GST fusion (KAT6A, Homo sapiens, UniProt Q92794, residues 85-181)
Technique: protein binding microarray
Form: double-stranded DNA, one strand shown
Matrix: in vitro
Concentration: not given
Notes: 8-mer, flanks averaged, mean of 2 arrays, mostly near background
Relative to: not given
Direction: higher = stronger binding
Construct (chain): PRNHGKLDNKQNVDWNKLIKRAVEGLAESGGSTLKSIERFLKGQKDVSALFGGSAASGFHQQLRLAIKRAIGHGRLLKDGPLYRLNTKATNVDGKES
| Sequence | E-score |
| --- | --- |
| GATGAGCC | 0.0163 |
| CTACAGCC | -0.106 |
| CATTTTAC | 0.0187 |
| AAGTAAAG | -0.118 |
| ACAACTGG | -0.0516 |
| CTACCCGA | 0.0774 |
| CGGCTAAC | 0.0588 |
| AGTTCATA | 0.0038 |
| AAAAACCA | -0.0272 |
| CGAGCAAA | 0.047 |
| GCTGCGAC | 0.082 |
| AGGGCACC | 0.0613 |
| AGTAAAGG | 0.0285 |
| CGCGCCCG | 0.182 |
| GACGTGCA | -0.0623 |
| ATTTCTAC | 0.017 |
| AACGAGCC | 0.0702 |
| CGAAACTA | -0.0401 |
| GTCTCAGA | -0.0131 |
| AAGCGGCA | 0.177 |
| CGTTCTGA | 0.00226 |
| GAAAGGCA | 0.151 |
| CCTGATTC | -0.0493 |
| ATGAGAGA | -0.117 |
| AACATTAT | -0.0697 |

Block 3
Target: ABI1, truncated, D143A, DHFR fusion (Arabidopsis thaliana)
Technique: DHFR PCA, deep sequencing
Matrix: yeast
Notes: methotrexate growth selection, single substitutions
Together with: (+)-ABA 0.032 µM
Relative to: wild-type fitted maximum
Direction: higher = stronger binding
Parent: PYL1, truncated, DHFR fusion (Arabidopsis thaliana); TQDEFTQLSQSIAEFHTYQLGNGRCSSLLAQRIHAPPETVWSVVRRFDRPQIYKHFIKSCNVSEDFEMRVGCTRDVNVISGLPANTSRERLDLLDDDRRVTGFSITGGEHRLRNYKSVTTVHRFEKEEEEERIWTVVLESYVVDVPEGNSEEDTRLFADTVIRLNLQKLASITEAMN
| Substitution | relative binding score [%] |
| --- | --- |
| E64I | 6.62 |
| V137K | 0.995 |
| V62R | -2.49 |
| W41Y | -16.1 |
| E174M | -5.54 |
| N177K | 23.9 |
| T17A | -2.03 |
| Q31M | 3.53 |
| G148N | -7.15 |
| C25V | 53.7 |
| T39G | 0.296 |
| I57V | 13.8 |
| M176H | 5.74 |
| A35D | 10.2 |
| L82M | 33.8 |
| P146V | 27.2 |
| R49H | 4.94 |

Block 4
Target: CEP164, C-terminal peptide (human)
Technique: DHFR complementation, deep sequencing
Matrix: yeast
Notes: single substitutions, model-inferred values
Relative to: wild type
Direction: higher = weaker binding
Parent: PDZK1, PDZ domain 2 (human); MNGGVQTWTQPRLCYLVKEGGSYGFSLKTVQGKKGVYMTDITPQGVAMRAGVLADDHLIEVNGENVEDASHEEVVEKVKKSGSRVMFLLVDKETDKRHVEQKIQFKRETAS; partner HNRVKVYRF
| Substitution | binding free energy change |
| --- | --- |
| G20Q | 0.154 kcal/mol |
| R97N | -0.232 kcal/mol |
| T42D | 0.24 kcal/mol |
| K18A | 0.244 kcal/mol |
| V61M | 1.26 kcal/mol |
| D56T | 0.211 kcal/mol |
| D55P | 1.88 kcal/mol |
| Q31H | 0.0275 kcal/mol |
| Q6D | -0.0456 kcal/mol |
| K77V | 0.246 kcal/mol |
| E72Q | 0.558 kcal/mol |
| K106F | -0.103 kcal/mol |
| M86T | -0.258 kcal/mol |
| V5S | -0.088 kcal/mol |
| E76T | 0.133 kcal/mol |
| D55L | 0.914 kcal/mol |

Block 5
Target: CCND1, cyclin fold, Cln2 fusion (human)
Technique: yeast growth competition, sequencing
Matrix: yeast
Notes: strong parent motif
Relative to: not given
Direction: higher = stronger binding
Parent: CCP110 docking peptide (human); EKVKRRLDLDIDG; partner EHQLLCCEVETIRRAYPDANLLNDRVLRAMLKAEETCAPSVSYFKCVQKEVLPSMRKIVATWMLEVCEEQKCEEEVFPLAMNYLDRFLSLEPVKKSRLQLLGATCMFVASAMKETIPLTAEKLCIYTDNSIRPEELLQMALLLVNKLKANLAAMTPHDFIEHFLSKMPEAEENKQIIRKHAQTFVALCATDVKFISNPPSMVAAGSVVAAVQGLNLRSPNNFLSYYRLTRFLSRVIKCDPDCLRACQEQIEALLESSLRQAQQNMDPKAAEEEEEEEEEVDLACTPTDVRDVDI
| Substitution | normalised enrichment score |
| --- | --- |
| AKVKRRLDLDIDG [E1A] | 0.517 |
| EKVKRALDLDIDG [R6A] | 0.377 |
| EKVKARLDLDIDG [R5A] | 0.121 |
| EKVKKRLDFDIDG [R5K L9F] | 0.704 |
| EKVKARADLDIDG [R5A L7A] | 0.0766 |
| EKVKRRADLDIDG [L7A] | -0.218 |
| EKVKKRLDLDIDG [R5K] | -0.0326 |
| EKVKRRLDLDADG [I11A] | 0.219 |
| EKVKRRLDLDIDA [G13A] | 1.23 |
| EKVKRRLDLDIAG [D12A] | 0.684 |

Block 6
Target: OGT, full length, His-tagged (human)
Technique: phage display, sequencing
Matrix: in vitro
Concentration: 1 µg OGT
Notes: single substitutions, 15-mer displayed peptide, unchanged parent 19.6
Relative to: input library
Direction: higher = stronger binding
Parent: peptide; TAPFYPPAYQIQVFK; partner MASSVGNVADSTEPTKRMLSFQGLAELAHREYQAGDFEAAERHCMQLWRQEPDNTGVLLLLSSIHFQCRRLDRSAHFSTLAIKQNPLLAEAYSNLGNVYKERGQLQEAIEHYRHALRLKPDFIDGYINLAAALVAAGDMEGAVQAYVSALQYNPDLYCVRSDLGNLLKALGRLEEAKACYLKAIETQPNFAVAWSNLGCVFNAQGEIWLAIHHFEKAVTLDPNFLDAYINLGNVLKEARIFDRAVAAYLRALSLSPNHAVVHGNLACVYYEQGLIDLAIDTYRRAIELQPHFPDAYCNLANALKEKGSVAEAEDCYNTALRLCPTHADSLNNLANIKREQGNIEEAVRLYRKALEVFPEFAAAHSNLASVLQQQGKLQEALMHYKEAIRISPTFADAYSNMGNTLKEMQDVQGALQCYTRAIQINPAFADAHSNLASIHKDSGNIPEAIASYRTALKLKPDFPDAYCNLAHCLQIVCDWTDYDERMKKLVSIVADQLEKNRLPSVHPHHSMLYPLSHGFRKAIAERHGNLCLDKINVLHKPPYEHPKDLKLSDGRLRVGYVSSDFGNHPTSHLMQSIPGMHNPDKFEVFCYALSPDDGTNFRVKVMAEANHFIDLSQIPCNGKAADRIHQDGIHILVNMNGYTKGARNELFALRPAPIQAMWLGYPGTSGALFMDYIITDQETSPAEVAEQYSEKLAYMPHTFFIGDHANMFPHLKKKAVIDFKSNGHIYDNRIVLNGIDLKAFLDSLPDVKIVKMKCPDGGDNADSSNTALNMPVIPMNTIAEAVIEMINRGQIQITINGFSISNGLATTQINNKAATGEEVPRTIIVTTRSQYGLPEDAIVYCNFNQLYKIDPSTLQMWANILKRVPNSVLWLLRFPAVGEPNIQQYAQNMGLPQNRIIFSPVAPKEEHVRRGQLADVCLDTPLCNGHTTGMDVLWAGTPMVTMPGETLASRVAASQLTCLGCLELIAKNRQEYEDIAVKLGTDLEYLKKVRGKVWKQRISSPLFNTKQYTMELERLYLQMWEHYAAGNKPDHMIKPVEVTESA
| Substitution | fold enrichment [fold] |
| --- | --- |
| Q10T | 2.11 |
| P7N | 1.16 |
| Q10H | 1.75 |
| P3K | 21.6 |
| Q10Y | 1.25 |
| F14E | 14.6 |
| Q10L | 6.26 |
| P6G | 1.32 |
| F4A | 7.32 |
| F4L | 17.6 |
| Y9Q | 0.667 |
| P7F | 1.9 |
| P7G | 1.13 |
| V13I | 25.3 |
| Q12N | 13.7 |

Further values, each from its own experiment
| Substance | target | test | test system | setting | how to read | measurement | value |
| --- | --- | --- | --- | --- | --- | --- | --- |
| PhoQ, residues 284 288 289 292 302 303 TAVSDG | PhoP, residues 12 14 15 18 19 NFCKL (Escherichia coli, UniProt P23836) | Sort-seq, item: YFP reporter | E. coli | PhoQ-PhoP variant library, together with: 10 µM Mg2+ | relative to: high Mg2+ state, higher = stronger signaling | fold induction | 0.905 |
